{"data": "Experimental data pooled from the literature", "note": "Parts stem from different laboratories: compare values within a part only. Substitutions count along the parent as printed."}
{"data": "Series 1", "target": "ABI1, truncated, D143A, DHFR fusion (Arabidopsis thaliana)", "technique": "DHFR PCA, deep sequencing", "matrix": "yeast", "setting": "methotrexate growth selection, single substitutions", "together with": "(+)-ABA 0.39 µM", "reference": "wild-type fitted maximum", "reading": "higher = stronger binding", "starting sequence": "PYL1, truncated, DHFR fusion (Arabidopsis thaliana); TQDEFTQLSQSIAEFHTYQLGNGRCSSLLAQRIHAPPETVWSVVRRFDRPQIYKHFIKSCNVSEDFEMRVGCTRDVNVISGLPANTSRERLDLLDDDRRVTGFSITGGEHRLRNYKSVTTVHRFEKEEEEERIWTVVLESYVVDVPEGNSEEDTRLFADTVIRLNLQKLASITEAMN; partner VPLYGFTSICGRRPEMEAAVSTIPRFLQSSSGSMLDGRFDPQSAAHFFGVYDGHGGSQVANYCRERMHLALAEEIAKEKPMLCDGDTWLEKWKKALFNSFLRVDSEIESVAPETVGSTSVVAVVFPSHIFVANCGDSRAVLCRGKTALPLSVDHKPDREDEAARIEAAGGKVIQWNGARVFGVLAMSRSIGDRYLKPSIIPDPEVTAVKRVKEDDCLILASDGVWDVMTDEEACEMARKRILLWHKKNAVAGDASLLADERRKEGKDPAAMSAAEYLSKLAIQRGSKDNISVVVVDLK"}
{"Variant": "G102A", "relative binding score": "12.2%"}
{"Variant": "E151G", "relative binding score": "11.4%"}
{"Variant": "R88S", "relative binding score": "24.9%"}
{"Variant": "R45H", "relative binding score": "-5.11%"}
{"Variant": "L156C", "relative binding score": "49.2%"}
{"Variant": "L166S", "relative binding score": "-9.05%"}
{"Variant": "E109L", "relative binding score": "-0.535%"}
{"data": "Series 2", "target": "Histone acetyltransferase KAT6A, both winged helices, GST fusion (KAT6A, Homo sapiens, UniProt Q92794, residues 1-181)", "technique": "protein binding microarray", "form": "double-stranded DNA, one strand shown", "matrix": "in vitro", "tested at": "not given", "setting": "8-mer, flanks averaged, mean of 2 arrays, mostly near background", "reference": "not given", "reading": "higher = stronger binding", "Target sequence (chain)": "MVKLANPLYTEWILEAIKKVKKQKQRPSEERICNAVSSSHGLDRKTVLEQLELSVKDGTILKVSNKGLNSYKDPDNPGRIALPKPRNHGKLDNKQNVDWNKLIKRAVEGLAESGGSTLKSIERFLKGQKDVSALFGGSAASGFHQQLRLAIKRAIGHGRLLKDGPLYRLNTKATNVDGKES"}
{"Oligonucleotide": "TCGCATCA", "E-score": 0.123}
{"Oligonucleotide": "ATCTGTTC", "E-score": -0.125}
{"Oligonucleotide": "CCTTGGAC", "E-score": -0.132}
{"Oligonucleotide": "TCGTACCA", "E-score": -0.024}
{"Oligonucleotide": "CCTCGGAA", "E-score": 0.115}
{"data": "Series 3", "target": "RNA binding protein fox-1 homolog 2, RRM domain, GST-SBP tag (RBFOX2, Homo sapiens, UniProt O43251-10, residues 100-194)", "technique": "RNA Bind-n-Seq", "form": "RNA", "matrix": "in vitro", "tested at": "365 nM", "setting": "natural RNA segment, single round, ends assumed", "reference": "no-protein control", "reading": "higher = stronger binding", "Residues (chain)": "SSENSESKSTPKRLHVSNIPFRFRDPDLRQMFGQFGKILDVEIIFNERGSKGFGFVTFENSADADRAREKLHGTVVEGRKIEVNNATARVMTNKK"}
{"Oligonucleotide": "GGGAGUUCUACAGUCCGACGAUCAUUUUUUUUGUUGUUCUUUUGUGAUUAAGGAUAUACAUUUAGUAGUCUUUGUUAUUAAAGGAACCUGCUGAUAAGUACAAGUGUGACCAUCUCAUUCAAAUGUUUGUUGUUGGAAUUCUCGGGUGCCAA", "RBNS enrichment (R)": 0.391}
{"Oligonucleotide": "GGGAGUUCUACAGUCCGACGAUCAGCUGGGAUUACAGGCACCCACCACCAUGCCUGGCUAAUUUUUGUAUUUUUGGUAGAGACAGGGUUUCACCAUGUUGGUCAGGCUAGUCUUGAACUCCCAACCUCAAGUGUGGAAUUCUCGGGUGCCAA", "RBNS enrichment (R)": 0.63}
{"Oligonucleotide": "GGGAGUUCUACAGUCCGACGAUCAUCCUUUCGGACGACUACUUGGAGCCAUAAGUAACCUCAGCAAAAACGAGGCCUCUGCAAGCCACUUUUCCAUGCCAAGCAUCCACCCGGCCCACAGGCAUGUUUCUGCCUGGAAUUCUCGGGUGCCAA", "RBNS enrichment (R)": 0.267}
{"Oligonucleotide": "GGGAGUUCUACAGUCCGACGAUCCUGUUUACAUUGUUUGUUUGGGGAAGAUUGGUAGGGGUCUAAUUACUGUUCACUUCCUUGUUGUAUUGCAGUAAAAGAUUUAAAACAACCAUUGCAUGUUUGCUUUUGAUUGGAAUUCUCGGGUGCCAA", "RBNS enrichment (R)": 27.9}
{"Oligonucleotide": "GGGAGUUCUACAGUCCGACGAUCAAAACUGAGUUCGAUGAAAGAAGAAAUCAAAAGGACACGCGCUGUAAAUGUAUAAAUGUAUAUUGUGUUGUAUGUAUAUUUUAUAUUUAUAAUAAAUGCAAACUAAUUCUUGGAAUUCUCGGGUGCCAA", "RBNS enrichment (R)": 0.979}
{"Oligonucleotide": "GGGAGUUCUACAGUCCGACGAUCCUUAAAAUAUGUGAAGUUUUCCUUGCUAUUUCAAUAACAGAUGGUGCUGCUAAUUCCCAACAUUUCUUAAAUUAUUUUAUAUCAUACAGUUUUCAUUGAUUAUAUGGGUAUGGAAUUCUCGGGUGCCAA", "RBNS enrichment (R)": 0.711}
{"Oligonucleotide": "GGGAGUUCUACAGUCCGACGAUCAUCACUUGAGGGGACUAUAAUGCAGUAUUUGCACCCCAAGAUAUUUACCUUAAAGUGGAAUCAGAAUGAGGUUCCCAAGCAAGAACUUGCCACCAAGGCCCCAAAGGAUAUGGAAUUCUCGGGUGCCAA", "RBNS enrichment (R)": 0.675}
{"data": "Further values, each from its own experiment"}
{"Substance": "PhoQ, residues 284 288 289 292 302 303 SSCLAV", "target": "PhoP, residues 12 14 15 18 19 DLLYY (Escherichia coli, UniProt P23836)", "assay": "Sort-seq, item: YFP reporter", "test system": "E. coli", "conditions": "PhoQ-PhoP variant library, together with: 10 µM Mg2+", "scale": "reference: high Mg2+ state, higher = stronger signaling", "measurement": "fold induction", "result": 3.28}
{"note": "Excerpt of the above (further values, each from its own experiment):"}
{"Substance": "PhoQ, residues 284 288 289 292 302 303 SSCLAV", "target": "PhoP, residues 12 14 15 18 19 DLLYY (Escherichia coli, UniProt P23836)", "assay": "Sort-seq, item: YFP reporter", "test system": "E. coli", "conditions": "PhoQ-PhoP variant library, together with: 10 µM Mg2+", "scale": "reference: high Mg2+ state, higher = stronger signaling", "measurement": "fold induction", "result": 3.28}
